Measured values of several laboratories.
Values joined by “and” are separate records of one study, mostly repeats; a detail may differ. ± marks the error that the study gave.

Compound | target or system | assay | test system | setting | scale | measurement | result
COc1ccccc1-c1n[nH]c2nc(N[C@H]3CC[C@H](NS(=O)(=O)CC(C)C)CC3)ncc12 |  | bead binding, competition bead pull-down, refers to: LINJ.21.0920 | Leishmania donovani extract | 10 µM | reference: vehicle | relative abundance | 0.68
CN1C(=O)C(C2C3=C(CCCC3=O)Oc3ccc(Br)cc32)C(=O)N(C)C1=O (stereo not shown) | 3T3-L1 preadipocytes | adipogenesis, Oil Red O staining |  | IC20, 14 days, single replicate |  | lipid content | 0.978 OD492 and 0.976 OD492 and 0.972 OD492
CN(C)CCN1CCN(c2ccc3nc(-c4ccc5nc(-c6ccc(C(F)(F)F)cc6)[nH]c5c4)[nH]c3c2)CC1 | HL-60(TB) | cell growth |  | 10 µM, 48 h |  | growth percent | 59.6%
C=C1C[C@@H]2[C@H](CC[C@]3(C)C(=O)CC[C@@H]23)[C@@]2(C)C=CC(=O)C=C12 | HEK293-A GFP-LC3B | LC3B puncta formation |  | 22 h, added: chloroquine, torin1 |  | IC50 | > 20 µM
O=C(Nc1nnc2c1c(-c1ccc(Cl)cc1)nc1sc(=Cc3ccco3)c(=O)n12)c1ccccc1 (mixture of isomers) | HL-60(TB) |  |  | 10 µM |  | growth percent | 31.9%
Cc1cc(C(=O)Nc2nc3cccc(C)c3n2[C@H]2CCCCN(C(=O)/C=C/CN(C)C)C2)ccn1 | Trypanosoma brucei | propidium iodide flow cytometry | bloodstream form | concentration not given, 8 h |  | cells in G1 phase | 34.5%
O=C1NC2(CC2)COc2ncc(F)cc2[C@H]2COCCN2c2ccn3ncc1c3n2 |  |  | Sprague-Dawley rat, male, serum | oral, 2.5 mg/kg/day, end of treatment, 4-week subacute toxicity |  | serum sodium | 145 ± 1 mmol/L
C1=[N+]2CCCC[N+]3=Cc4ccc5[n]4[Au-]23[n]2c1ccc2-c1nc2ccccc2nc1-5.F[P-](F)(F)(F)(F)F | HL-60(TB) | NCI60 five-dose screen |  |  |  | TGI | 4.08 -log M
COc1ccccc1-c1n[nH]c2nc(NC3CCN(C(=O)Cc4ccc(F)cc4F)CC3)ncc12 |  | bead binding, competition bead pull-down, refers to: LINJ.26.2250 | Leishmania donovani extract | 10 µM | reference: vehicle | relative abundance | 1.22
CN1C(=O)C(C2C3=C(CC(C)(C)CC3=O)Oc3ccc(Cl)cc32)C(=O)N(C)C1=O (stereo not shown) | 3T3-L1 preadipocytes | adipogenesis, Oil Red O staining |  | IC20, 14 days |  | mean lipid content | 0.687 OD492
CCCC(CCC)C(=O)OCc1cn(-c2cc3ccccc3oc2=O)nn1 | HL-60(TB) | NCI60 single dose |  | 10 µM |  | growth | 95.8%
CC1(C)CC(=O)C2=C(C1)Oc1ccccc1C2C1C(=O)NC(=O)NC1=O (stereo not shown) | 3T3-L1 preadipocytes | adipogenesis, Oil Red O staining |  | IC20, 14 days, single replicate |  | lipid content | 0.785 OD492 and 0.821 OD492 and 0.874 OD492
CC(C)(C)C(=O)OCOP(=O)(OCOC(=O)C(C)(C)C)C1CCCN(O)C1=O (stereo not shown) | HL-60(TB) |  |  |  |  | Log10TGI | -5.45 log M

Some of these lines once more:
Compound | target or system | assay | test system | setting | scale | measurement | result
COc1ccccc1-c1n[nH]c2nc(N[C@H]3CC[C@H](NS(=O)(=O)CC(C)C)CC3)ncc12 |  | bead binding, competition bead pull-down, refers to: LINJ.21.0920 | Leishmania donovani extract | 10 µM | reference: vehicle | relative abundance | 0.68
C=C1C[C@@H]2[C@H](CC[C@]3(C)C(=O)CC[C@@H]23)[C@@]2(C)C=CC(=O)C=C12 | HEK293-A GFP-LC3B | LC3B puncta formation |  | 22 h, added: chloroquine, torin1 |  | IC50 | > 20 µM
